Assay results pooled from the literature.
A part holds a random share of what one study measured. Positions count from the first letter of the parent shown.

Series 1 — technique: RNA Bind-n-Seq; form: RNA; sample: in vitro; tested at: 365 nM; reference: no-protein control; reading: higher = stronger binding; endpoint: RBNS enrichment (R)
Target: RNA binding protein fox-1 homolog 2, RRM domain, GST-SBP tag (RBFOX2, Homo sapiens, UniProt O43251-10, residues 100-194)
Notes: natural RNA segment, single round, ends assumed
Shared flanks, not repeated: GGGAGUUCUACAGUCCGACGAUC … UGGAAUUCUCGGGUGCCAA
Residues (chain): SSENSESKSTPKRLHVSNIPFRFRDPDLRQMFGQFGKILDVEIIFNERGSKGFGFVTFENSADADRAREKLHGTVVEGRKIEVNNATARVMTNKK
AUGUCUCUCAGAAUUCUUCAGGUGGAAAAACAUCUGAAAGCCACGUUCCUUACUGCAGAAUAGCAUAUAUAUCGCUUAAUCUUAAAUUUAUUAGAUAUGAGUUGUUUUCA: 0.371
CUUCAGAGGCCCUCGCUGCCAGCUCUGUAUCAGGACCCAGAGGAAGGGGCCAGAGGCUCGUUGACUGGCUGUGUGUUGGGAUUGAGUCUGUGCCACGUGUUUGUGCUGUG: 5.81
CCAAGGUAUUAAGAAUUUGCAAGUAUUUUAGAUUUUCGAAAAUGAAUGAGAGAACUGUGUAAACACCCCGCUGUUCCUUCAGUGCAACACAAUAAAACUCUGAAAUGAAG: 0.859
GGCCCUUUUUCUUUAUUGACUAGACCACCAGAGGAGGAUGUGUGGGAUUGUAGGCAAACCCACCUGUGGCAUCACUGAAAAUAAAUUUGAUCAUACCUAAGAGGUUAGGA: 0.719
GCCAAAGAUGGCUGGACCAUGGAAGAGAGUACCCUAUGAUGGGUUUCAACCUUGACUCGUAAAUACUUCCCUCUGCAUGGGGGUGAUCGUAGAGAGAAUCAAGGCUACCA: 0.288
UUCUGAGUGACAUGGGUGUGCCAGGCUAGACUAGGAGGUUCCGGUGUCUGGAAAAGCACUUUACAGAUGAGAUUCCCUCUCCUCCCCCACCUUCAAGCACCCUGUUCCCU: 0.299
UAUGGCCUGAGCACAGCUGAAAUCUAGCAGAGUUUAACUCUUCUGCCUCCAUGUCUGUCACUUAUAAUUCAGGUUCUGCUGUUGGCUUCAGAACAUGAGCAGAAGAAUCG: 0.408
CUAGACAGUAUUGCCACCUCUGGCCAAAUAUGCACUUUCCCUAGAAAGCCAUAUUCCAGCAGUGAAACUUGUGCUAUAGUGUAUACCACCUGUACAUACAUUGUAUAGGC: 0.203

Series 2 — technique: DHFR PCA, deep sequencing; sample: yeast; together with: (+)-ABA 17 µM; reference: wild-type fitted maximum; reading: higher = stronger binding; endpoint: relative binding score
Target: ABI1, truncated, D143A, DHFR fusion (Arabidopsis thaliana)
Notes: methotrexate growth selection, single substitutions
Starting sequence: PYL1, truncated, DHFR fusion (Arabidopsis thaliana); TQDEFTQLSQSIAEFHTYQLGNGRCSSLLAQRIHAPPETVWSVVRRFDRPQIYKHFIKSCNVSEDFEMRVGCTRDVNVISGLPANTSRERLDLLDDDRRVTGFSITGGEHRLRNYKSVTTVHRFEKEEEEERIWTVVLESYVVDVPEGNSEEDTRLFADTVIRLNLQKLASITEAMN
R123V: 58.2%
E147H: 78.5%
L166H: 58.5%
L8H: 56.7%
F66H: 65.8%
Q51G: 52.3%
P83K: 4.68%
R163W: 4.57%

Series 3 — technique: EMSA with sequencing; form: double-stranded DNA, one strand shown; sample: in vitro; tested at: 10 and 20 nM; reference: negative control set to 0; reading: higher = stronger binding; endpoint: normalised bound fraction
Target: Hepatocyte nuclear factor 3-alpha (Foxa1, Mus musculus, UniProt P35582, residues 1-468, full length assumed)
Sequence of UniProt P35582 (whole entry, looked up): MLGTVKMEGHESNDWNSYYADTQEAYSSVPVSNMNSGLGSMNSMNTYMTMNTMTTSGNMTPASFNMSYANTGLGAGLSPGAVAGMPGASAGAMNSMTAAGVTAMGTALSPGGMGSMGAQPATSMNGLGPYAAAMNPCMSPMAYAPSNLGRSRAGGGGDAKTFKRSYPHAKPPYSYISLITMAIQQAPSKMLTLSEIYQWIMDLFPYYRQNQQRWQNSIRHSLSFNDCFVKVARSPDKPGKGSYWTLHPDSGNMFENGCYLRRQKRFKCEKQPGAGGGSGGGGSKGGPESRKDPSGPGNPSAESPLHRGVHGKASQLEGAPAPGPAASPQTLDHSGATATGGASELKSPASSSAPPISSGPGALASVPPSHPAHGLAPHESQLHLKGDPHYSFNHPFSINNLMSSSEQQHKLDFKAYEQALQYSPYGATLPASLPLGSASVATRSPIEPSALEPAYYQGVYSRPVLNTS
Notes: whole designed probe, mean of two concentrations, ends assumed
Shared flanks, not repeated: GTGAGCGGTGCCCATTGATGGGGAAC … TTTCACTGGGATCGTGGGGAC
ACTGTAGTGACTCATGTCCAGCCCCAGTGCGAGTGTGTTCCTCTCTAAAGAAAACCCAGTGTGTGTGTTCTCTCTAAAGAAAATGTATTACTAAGTAATCTAAAAAAGCTACTAAGCTTAAAGTTACCAAAACAAGTTCCAGATGAGCAGGGCCCAGAGGCATTTTCTGAAGAAGAGCCGTGCCCTGCCTTAT: -0.00773 ratio
ATGAAGGGCTGCCAGTGTAATTTGAACCTCAAATAAACAACAGATAAAACTGTAGTATAAGTATGTCCCATATATTGCACAACACGATCTTTTAGATTGCCTAATCTGGCAAAGAAAATGACTTAACACACACTAATCTGTTGACAGGTAGGTGAAATATTTGAACTTCTACGTTGCTTCTCTAATCCTGTCC: 0.133 ratio
ACATAACAATAAGTGGACACTCCATGTAAGTGAAGGCTTAAAAAAATAAATGAAAGGAAGAAAGAATCTCAATACTATTATCAGATAAGAAAAAGTAATCTAGTACATACAAGTACATTTTATAATGATAAGCTATTTAGTATATAGCACAAGTATGTTGAACATGAGTCTTTAAGTACCAAGTTACAAAAAC: 0.0207 ratio
CTCAGATGGAACAGATGACCAGGGGTGACTCAGGACAGAGCAGGTGACCAGGGGAACAGATGTGAACTGCTGATTAGAACTGGTGGAAAAAGTAGATTACTGAAACTATGGGCGAGGAGAATGAGGAAGTTAAACTTTAAAATGGAGAACAAAGAACTGAACATACTGACATACTGATTCTTTGAAGAGAAAT: 0.00884 ratio
GTAACTACAGTCTCAACCTGCCACATTTTATCATAGGATCAAATCCAGTAATAAAATAATGAGTCTTGGAGGGCAGGCCAGACAGCTCATCTGTGTTTACTGAAAGCATCCAGCATATCTTATGAGACACGTGGTGCCAAACAGATGGGTGGCCGCCCTCCCTCATCTGCCTGCCTGAGGCTTGCCCAACTGC: 0.102 ratio

Mixed results
Starting sequence: viral docking peptide; CKVKRKLFGSENI; partner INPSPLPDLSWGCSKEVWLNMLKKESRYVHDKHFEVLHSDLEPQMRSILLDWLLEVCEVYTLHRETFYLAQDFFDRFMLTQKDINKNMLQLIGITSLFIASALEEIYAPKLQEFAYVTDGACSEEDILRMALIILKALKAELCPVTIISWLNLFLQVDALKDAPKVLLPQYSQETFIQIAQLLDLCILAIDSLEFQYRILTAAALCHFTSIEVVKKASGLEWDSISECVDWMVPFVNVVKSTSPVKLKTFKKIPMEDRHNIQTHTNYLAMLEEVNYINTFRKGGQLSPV
CAVKRKLFGSENI [K2A] — normalised enrichment score (CCNE2, cyclin fold, Cln2 fusion (human); yeast growth competition, sequencing; yeast; strong parent motif; reference: not given, higher = stronger binding): 3.24

Excerpt of the above (series 2):
R163W: 4.57%
